# Assay results collected from several papers.
# Each numbered part is a random draw from the data of one study; scales do not carry over between parts.

# Sample 1
# Target: RING finger protein unkempt homolog, zinc fingers 1-6, SBP tag (UNK, Homo sapiens, UniProt Q9C0B0, residues 30-357)
# UniProt Q9C0B0, sequence (30-357, looked up): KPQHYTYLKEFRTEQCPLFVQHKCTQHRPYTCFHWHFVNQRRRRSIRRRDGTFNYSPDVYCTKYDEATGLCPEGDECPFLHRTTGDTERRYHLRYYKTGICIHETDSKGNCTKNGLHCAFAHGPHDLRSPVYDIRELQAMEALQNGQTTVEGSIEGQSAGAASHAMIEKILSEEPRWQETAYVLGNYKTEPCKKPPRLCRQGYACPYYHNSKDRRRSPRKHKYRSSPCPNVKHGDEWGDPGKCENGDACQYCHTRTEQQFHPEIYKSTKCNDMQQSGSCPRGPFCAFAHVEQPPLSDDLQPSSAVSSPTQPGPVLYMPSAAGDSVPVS
# Method: RNA Bind-n-Seq
# Molecule type: RNA
# Medium: in vitro
# Tested at: 100 nM
# Setting: RNA with constant flanks, vertebrate orthologous sites, ends assumed
# Baseline: input RNA pool
# Direction: higher = stronger binding
# All sequences stand within: GGGAGUUCUACAGUCCGACGAUC … CAACAGAGGAUUGAGCAUCA
Oligonucleotide,bound/input enrichment
UCAGUCCCUUGGGCCGGGACAGAUUUUUUUUAACGUCUCGAAACUUAAAUUCUGUGCUUGUAGGAUACUGUAACCUUUUUGUCUUUUUUUUUUUUUUUUUUUUUUUAAAAAAAAACCCUC,0.881 ratio
UAAUUCAAUGGUCGAGGGUUCAGAACUCAAAAAGGUUCGCUCCAACUCCAGAAUUUACCAUAGGUAUUUUUUACUGGACGCCGACAUGCAGAGCCUGAGGUGGGAACCAUCUAAGAAGGA,0.114 ratio
UCAGUCCCCUGGGCCGGGACGGAUUUUUUUUAACGUCUCGAAACUUAAACUCUGUGCUUGUAGGAUACUGUAACCUUUUUGUCUUUUUUUUUUUUUUUUUUUUUUUUUUUUAAAAAAAAA,1.49 ratio
AUAUUGUAUGUAGAGAAAAUUUUUCAUUGACUCCAUUGUGAAAUUCCCUAGCAACUUAUUUAGAAUCUUAAUUUUUCUAAUUCAAGCUAACUGUUAGUCAUUUUUAGCCCAAAAUUAAAA,2 ratio
CGCUGUCGGACUGCAGGACACCAGGCCCUGUCCGCCGCUCACUGUCCCUCCACACUGAAUCUAGUUACAGGAAUUUAAUAUUUUUGAAAGUUUUACAUUGCUGUAUAUUCAAAGAUUUGU,0.574 ratio
AACAUCUGACUGGAUGAAGACCGUCCCAAGUUACAACCAAACAAACAGCUCCAUGGACUUUAGAACUUACAUGCUGAGAGACGAGAAUCUAGAACCACUGCCCCCAAACUGGGAGAUGGC,0.222 ratio
AGUUAUAGCAAAAGAGCCAAGCAGUAGUCUUGUGGGGUUUUCUGUAAAUGUAAAAAUACUUAGAUCCAGACUUUGUUUCCUUCUUCAAUUUCAAAAAUAAAAAAUACCUCAGUGCUAUGU,0.643 ratio
CAACUCCAUGGUGGAGGGCUCAGAGCUCAAAAAGCUUCGCUCCAACUCCAGAAUUUACCACCGGUAUUUUCUGCUGGACGCUGACAUGCAGAGCCUGAGGUGGGAACCAUCUAAGAAGGA,0.15 ratio
AGCCACCCAAGGAUUCAGGACUGGUUUUACAAAUAUACCAAGUAGAUAUGGAAAUAACAAUAGAAUUGGACAACCAAGACCAUGAUGUACUCUAACUUAUUUUUAUGAAGAAUAUUGACU,0.614 ratio
CAUGUCCCUGUUGCUGUGAUAUUUGAAAUAUCCACAGUACUCACUAUUUCCAAAUGAUUCUAGUAUUGCCUAGAAAUCUUUCUCUUACCUGUUAUUUAUCAACUUUUCCCUGUAUUUUUA,0.974 ratio
CACUAAAGUUAAUCAGCUGUAAUCUGAUGAAGUGUAACAUUGUGUAGCUUUUGUAUAAACACAUGAAUUGGAAAUCGUCCAAAUAUUGAGCUAUUUUCUUGCUUUAAAGACGCUGAUGUG,0.289 ratio

# Sample 2
# Target: Microphthalmia-associated transcription factor, full length (MITF, Homo sapiens, UniProt O75030-10, residues 1-413)
# Method: protein-binding microarray
# Molecule type: double-stranded DNA, one strand shown
# Medium: in vitro
# Tested at: not given
# Setting: k-mer, scored over probes, only values ≥0.25
# Direction: higher = stronger binding
# Construct (chain): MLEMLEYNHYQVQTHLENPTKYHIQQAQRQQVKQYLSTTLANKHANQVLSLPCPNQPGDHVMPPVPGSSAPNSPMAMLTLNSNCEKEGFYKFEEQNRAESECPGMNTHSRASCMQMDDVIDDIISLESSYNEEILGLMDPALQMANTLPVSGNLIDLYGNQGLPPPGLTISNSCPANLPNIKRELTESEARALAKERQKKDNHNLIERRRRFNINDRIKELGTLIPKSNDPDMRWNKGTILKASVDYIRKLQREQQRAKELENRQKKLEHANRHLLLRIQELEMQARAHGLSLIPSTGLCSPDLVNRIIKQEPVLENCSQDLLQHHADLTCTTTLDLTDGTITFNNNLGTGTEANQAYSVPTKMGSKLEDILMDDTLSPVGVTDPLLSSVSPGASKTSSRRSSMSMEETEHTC
Oligonucleotide,E-score
CCCATGA,0.411
ACGTGAT,0.455
CACACAC,0.274
CATGACA,0.394
AGTCATC,0.251
ACACATG,0.367
CGCGAGA,0.263
ATGTGAC,0.421
CATGACG,0.371
CGTGGTC,0.28
ACGGGAT,0.312
ATGACAA,0.26
GATCATA,0.287
CGTGGCA,0.265
ACATGTG,0.423
CAAGTCA,0.25
AAACACG,0.259
CATGTGG,0.391
CGCGTGC,0.355
CACAAGA,0.301
ATGCATC,0.298
CCACGGG,0.371
ACACGAG,0.405
ACTCACG,0.281

# Sample 3
# Target: RNA binding protein fox-1 homolog 2, RRM domain, GST-SBP tag (RBFOX2, Homo sapiens, UniProt O43251-10, residues 100-194)
# Method: RNA Bind-n-Seq
# Molecule type: RNA
# Medium: in vitro
# Tested at: 365 nM
# Setting: natural RNA segment, single round, ends assumed
# Baseline: no-protein control
# Direction: higher = stronger binding
# All sequences stand within: GGGAGUUCUACAGUCCGACGAUC … UGGAAUUCUCGGGUGCCAA
# Residues (chain): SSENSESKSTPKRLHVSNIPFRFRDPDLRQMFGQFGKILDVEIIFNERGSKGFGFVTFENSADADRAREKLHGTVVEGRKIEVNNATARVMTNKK
Oligonucleotide,RBNS enrichment (R)
CCCAAGACAGUCUUUCCUAACUGCCUCCCUACUUGGAGUAGUCACAUACUCAAGUGCACACCACAGCCCGAGGUGGAGACCUGGGCCACACCCUUCCCCUCCUGACAUCU,0.395
GGACAGAGUCUCAAGCCCUUAAUUUAUUUUAGCAGCUGUGUUUCUGUGACCCUGGUGUGACUAAGCAUCAGGGGUGGGGUUGUAUAAGUUCAAAAGUGUGAAAUGUCUGA,0.523
AAGGCCUGUUGAAGUCAAUGCUGUCUUGCCCCUUGCUGUUUCAGCAGGUUAGACUUUGGUCUUCACUGCUUAUAGCUGCAUUGGAGGCCAACGUAGCUGAUGCUCAGGGU,0.906
AUGAAAACGCCCAAAAUAAUUAGUAGGAGUUCAUCUUUAAAGGGGAUAUUCAUUUGAUUAUACGGGGGAGGGUCAGGGAAGAACGAACCUUGACGUUGCAGUGCAGUUUC,0.786
UUACCAUUUUGAGGGGAUUUAUACAUAUUUUAGAUAAAAAAAGUUAAAUGCUCUUAUUUUUCCAACAGCUUAACUACUCCUAGUUCAAGAGUGUCCCUUAGCCUUCCUUG,0.379
CACUUUUGGUCAAUAUGUCAAAAUUCGGGGUCCACGCCAGGCUUGGGGGGCUUGGGAGUGUUUGUCAUGUGUCCUCAGUCCCAUGGAUUUGAAAUGACCCCUCCUCGCUG,2.3
CUUUUUCUGCCCAACAAGUCCAGGGAAGGCCGAGGUCUCAGACUCCUGGGUAGGGGUGGGGGUUUGAGUUGAGGACCAAAGUGCCAUAGCGACAUCCAGAACACAAGCCC,0.354
UGAUGUGGGGAUGGGCCUCUUCUACAUUACCUUGGCCCAGGGGGAUCAGCUGGCUGGGAGGAUUAGUGAGCACCUCUGUAUUUUGAGGUCUGAGUCUUCUGGAGCUGUGU,0.446
GAUUGGGAAGAAAAGAAAUGGAUUUUUAUACACAUACACCAAAAAUAUUUUAAUGAUUCACUUGCCAAAUUACUUCCUGGGUGGUAUCAUUUCCUUAUCUCUCUGAUUAU,0.414
UGUCCAUUUUACUGUUUUGGAUCUAAUAAACCAAUUGGUUUUUUUUUUUUUUUUGUACCUUUCUGGGAUUUUAAUUCUUGCUAGUUACCGAUGUAUGAUGUGAAAAGGAA,1.09
CUAAACGCCUUUGAGCUUGUUGGUACCCAGAGAAAUAAACUAAAAUUGUAUGAAAAAAAAACUCUGCCUUCAAGCCUUUAAGGCAGGUUUUUAAGUCAUCAGCCAUAGUC,0.658
UGAGAAACAUUGAAAGCAGGUUAAAUGUUUUGUAACUUUGAAAUACAAAGUCUAAUGCAUAAGCAGAACCGAAAAGCAGACCGACAAUUGGUUAACAAAUAAUUCUUUUU,0.364

# Sample 4
# Target: Sal-like protein 4, full length isoform B (SALL4, Homo sapiens, UniProt Q9UJQ4-2, residues 1-616)
# Method: universal PBM
# Molecule type: double-stranded DNA, one strand shown
# Medium: in vitro
# Tested at: not given
# Setting: 8-mer, flanks averaged, mean of replicates
# Direction: higher = stronger binding
Oligonucleotide,E-score
AGCTTCGG,-0.226
GCCGTTTA,0.0295
AAGACGAT,0.0977
TAGTTGAA,0.244
AAACCGTC,-0.0909
CTTGAAAG,0.0279
ACACCGAG,-0.0814
CGCGTGGC,-0.292
CTTGTATA,0.248
AAAGTACC,0.0694
CGGGCTTA,-0.219
AGCACCCC,-0.315
AATCATTG,0.248
ACCCGCGA,-0.174
TGAGCCCA,-0.212
ACCTGTAT,0.0906
AATACCAG,0.0794
CCTTCGAA,-0.076
ACCGCTTC,-0.163
ATGAGCGC,-0.0412
AAGCTTGC,-0.0869
AAGAAGAT,0.119
ATGTCTAA,0.239
AACCAGTG,-0.14

# Sample 5
# Target: Histone acetyltransferase KAT6A, winged helix 1, GST fusion (KAT6A, Homo sapiens, UniProt Q92794, residues 1-85)
# Method: protein binding microarray
# Molecule type: double-stranded DNA, one strand shown
# Medium: in vitro
# Tested at: not given
# Setting: 8-mer, flanks averaged, mean of 2 arrays, mostly near background
# Baseline: not given
# Direction: higher = stronger binding
# Construct (chain): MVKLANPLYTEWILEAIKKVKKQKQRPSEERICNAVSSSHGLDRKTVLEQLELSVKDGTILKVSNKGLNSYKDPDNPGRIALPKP
Oligonucleotide,E-score
ATGGAATC,-0.0218
ACTACACA,-0.0825
GGTACTTA,0.0184
CCGCGACG,0.424
AGCCGGTA,0.255
ATCCGGGA,-0.13
ACAAAGGT,-0.119
CGTGACAA,0.00266
GTACCTTA,0.1
ACCTCCTA,-0.0746
CACGTCTC,0.0337
CTGTACGC,0.203
CTTCCGCC,0.339
AGATGGCC,-0.0468
TACGAATA,-0.308
TAAGCCCA,-0.203
CAGAGGCC,0.0157
GCTGAAAC,0.0725
CGGGCTCA,0.192
AAGCTTGA,-0.0724
GGCTTGAA,-0.0826
CACGGCAC,0.326
CATAGTCC,-0.0262
AATACACG,0.0475
ATGAGAAA,-0.119
